Measurements pooled from the literature.
Lines come from different studies, so protocols differ. ± gives the spread as reported.

| Compound | tested on | assay | test system | setting | scale | quantity | result |
| --- | --- | --- | --- | --- | --- | --- | --- |
| C=CC(=O)Nc1cccc(Cn2ncc3cnc(Nc4cnn(CCOC)c4)nc32)c1 | HIPK1 human | binding, KINOMEscan |  | 100 nM | lower = stronger binding | percent of control | 88% |
| CC(C)C[C@H](NC(=O)[C@H](CC(=O)O)NC(=O)CNC(=O)[C@@H](N)CCCNC(=N)N)C(=O)N[C@@H](C)C(=O)N[C@H](C(=O)N[C@@H](CC(C)C)C(=O)N[C@@H](CCCNC(=N)N)C(=O)N[C@@H](CCC(N)=O)C(=O)N[C@@H](CC(C)C)C(=O)N[C@@H](C)C(=O)N[C@@H](CCC(N)=O)C(=O)N[C@@H](CCC(=O)O)C(=O)N[C@@H](CC(=O)O)C(=O)NCC(=O)N[C@H](C(=O)N[C@H](C(=O)NCC(=O)N[C@H](C(=O)N[C@@H](CCCNC(=N)N)C(=O)NCCOCCOCCOCCOCCOCCOCCOCCOCCOCCOCCOCCOCCC(=O)N[C@@H](CS)C(N)=O)C(C)C)C(C)C)C(C)C)[C@@H](C)O |  | ex vivo NIR imaging | NOD/SCID mice, xenograft, H460 xenograft | intravenous, 30 µg, 24 h | reference: spleen | fluorescence signal ratio | 16.5 |
| COC1OC(C)C(OC2OC(C)C(OS(=O)(=O)O)C(OC3OC(C)C(OC4OC(C)C(OS(=O)(=O)O)C(OC5OC(C)C(OC6OC(C)C(OS(=O)(=O)O)C(OS(=O)(=O)O)C6O)C(OS(=O)(=O)O)C5O)C4O)C(OS(=O)(=O)O)C3O)C2O)C(OS(=O)(=O)O)C1O (stereo not shown) |  |  | human plasma | 128 µg/mL |  | prothrombin time | 15.7 ± 0.7 s |
| C[n+]1ccc(/C=N/NC(=O)N/N=C/c2cc[n+](C)c3ccccc23)c2ccccc21 | hp2 hairpin duplex DNA | FRET melting |  | 1 µM, added: ds26 10 µM |  | ΔTm | 0.5 ± 0.1 °C |
| COc1ccc2c(C)nc(Nc3nc(O)cc(-c4ccccc4)n3)nc2c1 | Mus musculus | gene silencing, high-content imaging | LDR reporter GFP cells | 30 h, retest, mean of two runs |  | Emax | 78% |
| COC1OC(C)C(O)C(OC2OC(C)C(O)C(OC3OC(C)C(O)C(OC4OC(C)C(O)C(OC5OC(C)C(O)C(OC6OC(C)C(O)C(OC7OC(C)C(O)C(OC8OC(C)C(O)C(OC9OC(C)C(O)C(OC%10OC(C)C(O)C(OC%11OC(C)C(O)C(OC%12OC(C)C(O)C(OS(=O)(=O)O)C%12OS(=O)(=O)O)C%11OS(=O)(=O)O)C%10OS(=O)(=O)O)C9OS(=O)(=O)O)C8OS(=O)(=O)O)C7OS(=O)(=O)O)C6OS(=O)(=O)O)C5OS(=O)(=O)O)C4OS(=O)(=O)O)C3OS(=O)(=O)O)C2OS(=O)(=O)O)C1OS(=O)(=O)O (stereo not shown) |  |  | human plasma | 128 µg/mL | reference: control | prothrombin time prolongation | 0.96 fold |
| O=C(N/N=C/c1cc[n+](CC2CC2)c2ccccc12)c1cncc(C(=O)N/N=C/c2cc[n+](CC3CC3)c3ccccc23)n1 | hp2 hairpin duplex DNA | FRET melting |  | 1 µM |  | ΔTm | 1.5 °C |
| C=CC(=O)N1[C@H](c2ccc3c(c2)OCO3)c2[nH]c3ccccc3c2C[C@@H]1C(=O)N1CCN(C)CC1 | human cyclin E1 N112C-3xFLAG:CDK2 | co-IP with TMT proteomics, measured: NUP98 |  | concentration not given, P52948 | reference: wild type DMSO | relative co-enrichment | 107% |
| O=C(c1ccc(-c2ccc3ncnc(Nc4ccc(OCc5cccc(F)c5)c(Cl)c4)c3c2)cc1)N1CCOCC1 | Leishmania major | parasite growth, resazurin |  | promastigote |  | EC50 | 850 nM |
| CC(C)(C)c1cc(-c2ccc3cccnc3n2)nc(-c2ccc3cccnc3n2)c1.[Cl-].[Cl-].[Ru+2].c1ccc2cc3nc4c5cccnc5c5ncccc5c4nc3cc2c1 | A-375 | resazurin |  | added: light 523 nm, 100 J/cm2 | reference: dark EC50 over light EC50 | phototoxicity index | 3 |
| N=C(S)N/N=C/c1ncc(C(F)(F)F)cc1Cl | Mus musculus | gene silencing, high-content imaging | LDR reporter GFP cells | 30 h, retest run 2 |  | Emax | 92% |
| COC1CN([C@H]2CC[C@H]([C@@]3(C)Oc4c(Cl)cc(C(=O)NCc5c(SC)cc(C)[nH]c5=O)c(C)c4O3)CC2)C1 |  | RNA-seq, measured: STAB2 mouse homolog | mouse, HT-1376 xenograft, whole blood | dose not given | reference: vehicle | log2 fold change | 2.48 |
| CNS(=O)(=O)Nc1nccc(Cc2c(C)c3ccc(Oc4ncccc4F)cc3oc2=O)c1F | HDQ-P1 | cell viability |  | 7 days |  | IC50 | 10.6 nM |
| COC1OC(C)C(OC2OC(C)C(O)C(OC3OC(C)C(OC4OC(C)C(O)C(OC5OC(C)C(OC6OC(C)C(O)C(OC7OC(C)C(OC8OC(C)C(O)C(OC9OC(C)C(OC%10OC(C)C(O)C(OC%11OC(C)C(OC%12OC(C)C(O)C(OS(=O)(=O)O)C%12OS(=O)(=O)O)C(OS(=O)(=O)O)C%11OS(=O)(=O)O)C%10OS(=O)(=O)O)C(OS(=O)(=O)O)C9OS(=O)(=O)O)C8OS(=O)(=O)O)C(OS(=O)(=O)O)C7OS(=O)(=O)O)C6OS(=O)(=O)O)C(OS(=O)(=O)O)C5OS(=O)(=O)O)C4OS(=O)(=O)O)C(OS(=O)(=O)O)C3OS(=O)(=O)O)C2OS(=O)(=O)O)C(OS(=O)(=O)O)C1OS(=O)(=O)O (stereo not shown) |  |  | human plasma | 128 µg/mL |  | prothrombin time | 14.7 ± 0.3 s |
| C[n+]1cc(/C=N/NC(=O)C(=O)N/N=C/c2cc3ccccc3[n+](C)c2)cc2ccccc21 | hp2 hairpin duplex DNA | FRET melting |  | 1 µM, added: ds26 10 µM |  | ΔTm | 0.6 ± 0.3 °C |
| CCN(CC)CC(=O)Nc1cccc(-n2cc(-c3ccc4ccc(-c5cn(-c6cccc(NC(=O)CN(CC)CC)c6)nn5)cc4c3)nn2)c1 | RCC4 | PCR angiogenesis array, measured: COL18A1 |  | 5 x IC50, 4 h, normoxia | reference: untreated | fold regulation | -1.21 |

| Compound | tested on | assay | test system | setting | scale | quantity | result |
| --- | --- | --- | --- | --- | --- | --- | --- |
| C[n+]1ccc(/C=N/NC(=O)c2cc(C(=O)N/N=C/c3cc[n+](C)c4ccccc34)ncn2)c2ccccc21 | MYC parallel G4 DNA | FRET melting |  | 1 µM, DNA 0.2 µM |  | ΔTm | 2.7 ± 1.1 °C |
| COc1nc(Nc2nc(O)c3ccccc3n2)nc2ccc(C)cc12 | Mus musculus | gene silencing, high-content imaging | LDR reporter GFP cells | 30 h, confirmation, mean of two runs |  | Emax | 39% |
| C[n+]1ccc(/C=N/NC(=O)c2cccc(C(=O)N/N=C/c3cc[n+](C)c4ccccc34)c2)c2ccccc21 | hp2 hairpin duplex DNA | FRET melting |  | 1 µM, added: ds26 10 µM |  | ΔTm | 0.4 ± 0.1 °C |
| Cc1ccc(/C=N/N=C(\S)Nc2cccc(S(=O)(=O)N(C)C)c2)o1 | Mus musculus | gene silencing, high-content imaging | LDR reporter GFP cells | retest run 2 |  | AC50 | 12600 nM |
| CN1CCCNC(=O)c2cccc(c2)C(=O)NCCCN(C)CCCNc2cccc3c2C(=O)c2cccc(c2C3=O)NCCC1 | SAS | RNA-Seq, measured: THNSL1 mRNA |  | 1 µM, 6 h | reference: untreated cells | log2 fold change | 1.43 |
| CCC(=O)N1CCN(c2ccc(NC(=O)c3ccc([N+](=O)[O-])o3)cc2Cl)CC1 | Mus musculus | gene silencing, high-content imaging | LDR reporter GFP cells | 30 h, retest run 1 |  | Emax | 46% |
| Nc1ncc(-c2cc(-c3cnn(CC(F)(F)F)c3)ncc2F)nc1C(=O)NC1CNCC(F)C1 (stereo not shown) | CSNK1A1 | KINOMEscan |  | 1 µM | reference: DMSO control | remaining binding | 100% |
| O=C(N/N=C/c1cc[n+](Cc2ccccc2)c2ccccc12)c1ccc2ccc3ccc(C(=O)N/N=C/c4cc[n+](Cc5ccccc5)c5ccccc45)nc3c2n1 | MYC parallel G4 DNA | FRET melting |  | 1 µM, DNA 0.2 µM |  | ΔTm | 11.9 ± 0.4 °C |
| O=C(CSc1cccc[n+]1[O-])c1ccccc1Br | Mus musculus | gene silencing, high-content imaging | LDR reporter GFP cells | 30 h, retest run 2 |  | Emax | 69% |
| C[n+]1cccc2cc(/C=N/NC(=O)C(=O)N/N=C/c3ccc4c(ccc[n+]4C)c3)ccc21 | MYC parallel G4 DNA | FRET melting |  | 1 µM, DNA 0.2 µM, added: duplex DNA competitor 10 µM |  | ΔTm | 3.6 ± 0.5 °C |
| COC1OC(C)C(OS(=O)(=O)O)C(OC2OC(C)C(OS(=O)(=O)O)C(OC3OC(C)C(OS(=O)(=O)O)C(OC4OC(C)C(OS(=O)(=O)O)C(OC5OC(C)C(OS(=O)(=O)O)C(OC6OC(C)C(OS(=O)(=O)O)C(OC7OC(C)C(OS(=O)(=O)O)C(OC8OC(C)C(OS(=O)(=O)O)C(OS(=O)(=O)O)C8OS(=O)(=O)O)C7OS(=O)(=O)O)C6OS(=O)(=O)O)C5OS(=O)(=O)O)C4OS(=O)(=O)O)C3OS(=O)(=O)O)C2OS(=O)(=O)O)C1OS(=O)(=O)O (stereo not shown) |  |  | human plasma | 128 µg/mL | reference: control | prothrombin time prolongation | 0.95 fold |
| O=C(NN1C(=O)c2ccccc2NC1c1ccc([N+](=O)[O-])o1)c1ccc([N+](=O)[O-])cc1 (stereo not shown) | Mus musculus | gene silencing, high-content imaging | LDR reporter GFP cells | 30 h, retest run 2 |  | Emax | 119% |
| C[n+]1ccc(/C=N/NC(=O)c2cncc(C(=O)N/N=C/c3cc[n+](C)cc3)n2)cc1 | hp2 hairpin duplex DNA | FRET melting |  | 1 µM, added: ds26 10 µM |  | ΔTm | 0 ± 0.1 °C |
| CC1=C/C(=N\N=C(/S)Nc2cccnc2)CC(C)(C)C1 | Mus musculus | gene silencing, high-content imaging | LDR reporter GFP cells | 30 h, retest, mean of two runs |  | Emax | 63% |
| Cc1ncsc1-c1ccc(C(C)NC(=O)C2CC(O)CN2C(=O)C(NC(=O)CCCCCCCCCCN2CCCC(Nc3ncc(Cl)c(Nc4ccccc4S(=O)(=O)C(C)C)n3)C2)C(C)(C)C)cc1 (stereo not shown) | 22Rv1 | RNA-seq, measured: LMLN-AS1 |  | concentration not given | reference: DMSO | log2 fold change | -2 |

Repeated from above:
| Compound | tested on | assay | test system | setting | scale | quantity | result |
| --- | --- | --- | --- | --- | --- | --- | --- |
| CCC(=O)N1CCN(c2ccc(NC(=O)c3ccc([N+](=O)[O-])o3)cc2Cl)CC1 | Mus musculus | gene silencing, high-content imaging | LDR reporter GFP cells | 30 h, retest run 1 |  | Emax | 46% |
| Nc1ncc(-c2cc(-c3cnn(CC(F)(F)F)c3)ncc2F)nc1C(=O)NC1CNCC(F)C1 (stereo not shown) | CSNK1A1 | KINOMEscan |  | 1 µM | reference: DMSO control | remaining binding | 100% |
| O=C(N/N=C/c1cc[n+](Cc2ccccc2)c2ccccc12)c1ccc2ccc3ccc(C(=O)N/N=C/c4cc[n+](Cc5ccccc5)c5ccccc45)nc3c2n1 | MYC parallel G4 DNA | FRET melting |  | 1 µM, DNA 0.2 µM |  | ΔTm | 11.9 ± 0.4 °C |
